Published values from different studies.
Each line is one published result; not all experiments were run side by side.

| Structure (SMILES) | test system | conditions | concentration |
| --- | --- | --- | --- |
| Brc1ccccc1-c1nnc(CSc2nnnn2-c2ccccc2)o1 | male C57BL/6 mouse, brain | intraperitoneal, 10 mg/kg, 6 h | 78 nM |
| COc1cnc2cccc(N3CCc4c(cc(Cn5ccnc5)cc4-c4cn(C)nc4C(F)(F)F)C3=O)c2c1 | female nude mouse, plasma | intraperitoneal, 100 mg/kg, 6 h, single dose, tumour-bearing | 9930 ng/mL |
| COc1cccc(C2CC(c3ccccc3Cl)Nc3nc(N)nn32)c1 (stereo not drawn) | male CD-1 mouse, plasma | intraperitoneal, 20 mg/kg, 3 h, single dose | 27000 nM |
| CCC(=O)NC1CC=C(c2cc3c(Nc4ccc5scnc5c4)ncnc3s2)CC1 (stereo not drawn) | BALB/c mouse, plasma | oral, 10 mg/kg, 6 h | 29.2 ng/mL |
| CC(C)Cn1c(SCC(=O)N2CCc3ccccc3C2)nc2cc(Cl)ccc2c1=O | male C57BL/6 mouse, brain | intraperitoneal, 10 mg/kg, 24 h | 78 nM |
| CC(C)NC(=O)N1CC=C(c2cc3c(Nc4ccc5scnc5c4)ncnc3s2)C1 | BALB/c mouse, plasma | oral, 10 mg/kg, 2 h | 47.7 ng/mL |
| O=C(Nc1nccs1)C(c1cc(F)ccc1O)N1Cc2ccccc2C1=O (stereo not drawn) | female FVB mouse, kidney | oral, 20 mg/kg, 4 h, single dose | 14.9 ng/mL |
| CC(C)C(=O)NC1CC=C(c2cc3c(Nc4ccc5scnc5c4)ncnc3s2)CC1 (stereo not drawn) | BALB/c mouse, plasma | oral, 10 mg/kg, 6 h | 8.76 ng/mL |
| CCC(=O)N(C)c1ccc(Cl)c(Cl)c1 | mouse, brain | subcutaneous, 40 mg/kg, 15 min | 2440 nM |

A few entries again:
| Structure (SMILES) | test system | conditions | concentration |
| --- | --- | --- | --- |
| COc1cccc(C2CC(c3ccccc3Cl)Nc3nc(N)nn32)c1 (stereo not drawn) | male CD-1 mouse, plasma | intraperitoneal, 20 mg/kg, 3 h, single dose | 27000 nM |
